Results from different studies.
Compare with care: the assays were run in different laboratories. “And” joins repeats or separate records; there may be more than shown. ± marks the error that the study gave.

test | system | conditions | quantity | value | Structure (SMILES)
PAMPA | artificial membrane in PBS | 50 µM, 5 h | log effective permeability | -4.84 | CCOC(=O)COc1cccc2c1[n+]([O-])c1cccc(O)c1[n+]2[O-]
– | n-octanol/0.1 M phosphate buffer | pH 7.4, 25 °C, per radiosynthesis batch | log P | 2.54 and 2.47 and 2.37 | COc1ccc2cc(CCC[18F])ccc2c1
SPME sorption isotherm | PBS | – | log Freundlich coefficient | 0.99 | CC(C)NCC(O)COc1ccc(CC(N)=O)cc1 (stereo not drawn)
RP-HPLC, C18 | 28% acetonitrile isocratic | pH 7.4 | log retention factor | -0.322 | CC[C@H](C)[C@H](NC(=O)[C@H](CO)NC(=O)[C@H](CCCNC(=N)N)NC(C)=O)C(=O)N[C@H]1CSSC[C@@H](C(=O)N[C@H](C(N)=O)[C@@H](C)O)NC(=O)[C@H](CCCNC(=N)N)NC(=O)[C@H](Cc2c[nH]cn2)NC(=O)[C@H](C)NC(=O)CNC(=O)[C@H](Cc2c[nH]c3ccccc23)NC(=O)[C@H](CC(=O)O)NC(=O)[C@H](CCC(N)=O)NC(=O)[C@H](Cc2ccc(O)cc2)NC(=O)[C@H](C(C)C)NC1=O
PAMPA | artificial membrane in PBS | 50 µM, 5 h | log effective permeability | -7.74 | CCCCC(=O)Oc1cccc2c1[n+]([O-])c1cccc(OC(=O)CCCC)c1[n+]2[O-]
SPME sorption isotherm | PBS | – | log Freundlich coefficient | 1.76 | CN(C)CCCC1(c2ccc(F)cc2)OCc2cc(C#N)ccc21 (stereo not drawn)
isocratic RP-HPLC, C18 | 32% acetonitrile, phosphate pH 7.4, 1% TFA | 25 °C | log retention factor | 0.091 | CC[C@H](C)[C@H](NC(=O)[C@H](CO)NC(=O)[C@H](CCCNC(=N)N)NC(C)=O)C(=O)N[C@H]1CSSC[C@@H](C(=O)N[C@H](C(N)=O)[C@@H](C)O)NC(=O)[C@H](CCCNC(=N)N)NC(=O)[C@H](Cc2c[nH]cn2)NC(=O)[C@H](C)NC(=O)CNC(=O)[C@H](Cc2c[nH]c3ccccc23)NC(=O)[C@H](CC(=O)O)NC(=O)[C@H](CCC(N)=O)NC(=O)[C@H](Cc2ccc3ccccc3c2)NC(=O)[C@H](C(C)C)NC1=O
PAMPA | artificial membrane in PBS | 50 µM, 5 h | log effective permeability | -4.93 | CCOC(=O)COc1cccc2c1[n+]([O-])c1cc(C)c(C)cc1[n+]2[O-]
RP-HPLC, C18 | 28% acetonitrile isocratic | pH 7.4 | log retention factor | 0.426 | CC[C@H](C)[C@H](NC(C)=O)C(=O)N[C@H]1CSSC[C@@H](C(=O)N[C@H](C(N)=O)[C@@H](C)O)NC(=O)[C@H](CCCNC(=N)N)NC(=O)[C@H](Cc2c[nH]cn2)NC(=O)[C@H](C)NC(=O)CNC(=O)[C@H](Cc2c[nH]c3ccccc23)NC(=O)[C@H](CC(=O)O)NC(=O)[C@H](CCC(N)=O)NC(=O)[C@H](Cc2c[nH]c3ccccc23)NC(=O)[C@H](C(C)C)NC1=O
– | oil/water | pH 5.4 | log P | 1.95 | Oc1ccc(Br)c2cccnc12
– | – | 0.7 to 42 µg/L, 12.4 °C | log KAW | 2.11 | C[Si](C)(C)O[Si](C)(C)C
PAMPA | PBS | 5 h, pH 7.4 | log Papp | -5.55 | O=C(O)c1ccc2c(c1)nc(NCc1ccccc1)c1ncncc12
PAMPA | artificial membrane in PBS | 50 µM, 5 h | log effective permeability | -5.18 | CCN(CC)C(=O)COc1cccc2c1[n+]([O-])c1cc(C)c(C)cc1[n+]2[O-]
shake flask | 1-octanol/phosphate buffer | pH 7.4 | log D | -1.7 ± 0.035 | [Cl-].[Cl-].[Os+2].c1cnc2c(c1)ccc1cccnc12.c1cnc2c(c1)ccc1cccnc12.c1cnc2c(c1)ccc1cccnc12
– | fresh water | 12 (unit not given), 20 °C, S30-1 sampler, 30 µm | log K(PDMS-water) | 3.77 ± 0.05 | c1ccc2c(c1)ccc1ccccc12
– | porcine brain polar lipids | 10 µM, pH 7.4, 0.2% DMSO | log D brain polar lipid | 0.06 ± 0.06 | O=C(Nc1cnn2ccc(N3CCC[C@@H]3c3cc(F)ccc3F)nc12)N1CC[C@H](O)C1
RP-HPLC, C18 | 28% acetonitrile isocratic | pH 7.4 | log retention factor | -0.09 | CC[C@H](C)[C@H](N)C(=O)N[C@H]1CSSC[C@@H](C(=O)N[C@H](C(N)=O)[C@@H](C)O)NC(=O)[C@H](CCCNC(=N)N)NC(=O)[C@H](Cc2c[nH]cn2)NC(=O)[C@H](Cc2c[nH]cn2)NC(=O)CNC(=O)[C@H](Cc2c[nH]c3ccccc23)NC(=O)[C@H](CC(=O)O)NC(=O)[C@H](CCC(N)=O)NC(=O)[C@H](C(C)C)NC(=O)[C@H](C(C)C)NC1=O
protonation constant, potentiometry | – | 298 K, ionic strength 0.15 M NaCl | log K1 | 8.27 | c1cc2nc(c1)CNCc1cccc(n1)CNC2
isocratic RP-HPLC, C18 | 32% acetonitrile, phosphate pH 7.4, 1% TFA | 25 °C | log retention factor | 0.85 | CC[C@H](C)[C@H](NC(=O)[C@H](CO)NC(=O)[C@H](CCCNC(=N)N)NC(C)=O)C(=O)N[C@H]1CSSC[C@@H](C(=O)N[C@H](C(N)=O)[C@@H](C)O)NC(=O)[C@H](CCCNC(=N)N)NC(=O)[C@H](Cc2c[nH]cn2)NC(=O)[C@H](Cc2cccc3ccccc23)NC(=O)CNC(=O)[C@H](Cc2c[nH]c3ccccc23)NC(=O)[C@H](CC(=O)O)NC(=O)[C@H](CCC(N)=O)NC(=O)[C@H](Cc2cccc3ccccc23)NC(=O)[C@H](C(C)C)NC1=O
protonation constant, potentiometry | – | 298 K, ionic strength 0.15 M NaCl | log K2 | 7 | COc1cc2nc(c1)CNCc1cc(OC)cc(n1)CNC2
RP-HPLC, C18 | 28% acetonitrile isocratic | pH 7.4 | log retention factor | 0.591 | CC[C@H](C)[C@H](NC(C)=O)C(=O)N[C@H]1CSSC[C@@H](C(=O)N[C@H](C(N)=O)[C@@H](C)O)NC(=O)[C@H](CCCNC(=N)N)NC(=O)[C@H](Cc2c[nH]cn2)NC(=O)[C@@](C)(CC)NC(=O)CNC(=O)[C@H](Cc2c[nH]c3ccccc23)NC(=O)[C@H](CC(=O)O)NC(=O)[C@H](CCC(N)=O)NC(=O)[C@H](Cc2c[nH]c3ccccc23)NC(=O)[C@H](C(C)C)NC1=O
PAMPA | artificial membrane in PBS | 50 µM, 5 h | log effective permeability | -5.16 | CCOC(=O)COc1cccc2c1[n+]([O-])c1cc(Cl)c(Cl)cc1[n+]2[O-]
isocratic RP-HPLC, C18 | 32% acetonitrile, phosphate pH 7.4, 1% TFA | 25 °C | log retention factor | 0.122 | CC[C@H](C)[C@H](NC(=O)[C@H](CCCNC(=N)N)NC(=O)[C@H](CCC(=O)O)NC(C)=O)C(=O)N[C@H]1CSSC[C@@H](C(=O)N[C@H](C(N)=O)[C@@H](C)O)NC(=O)[C@H](CCCNC(=N)N)NC(=O)[C@H](Cc2c[nH]cn2)NC(=O)[C@H](Cc2cccc3ccccc23)NC(=O)CNC(=O)[C@H](Cc2c[nH]c3ccccc23)NC(=O)[C@H](CC(=O)O)NC(=O)[C@H](CCC(N)=O)NC(=O)[C@H](Cc2c[nH]c3ccccc23)NC(=O)[C@H](C(C)C)NC1=O
– | fresh water | 12 (unit not given), 20 °C | log K(PDMS-water) | 3.87 ± 0.04 | c1ccc2cc3ccccc3cc2c1

A few entries again:
test | system | conditions | quantity | value | Structure (SMILES)
– | – | 0.7 to 42 µg/L, 12.4 °C | log KAW | 2.11 | C[Si](C)(C)O[Si](C)(C)C
PAMPA | PBS | 5 h, pH 7.4 | log Papp | -5.55 | O=C(O)c1ccc2c(c1)nc(NCc1ccccc1)c1ncncc12
protonation constant, potentiometry | – | 298 K, ionic strength 0.15 M NaCl | log K2 | 7 | COc1cc2nc(c1)CNCc1cc(OC)cc(n1)CNC2
isocratic RP-HPLC, C18 | 32% acetonitrile, phosphate pH 7.4, 1% TFA | 25 °C | log retention factor | 0.85 | CC[C@H](C)[C@H](NC(=O)[C@H](CO)NC(=O)[C@H](CCCNC(=N)N)NC(C)=O)C(=O)N[C@H]1CSSC[C@@H](C(=O)N[C@H](C(N)=O)[C@@H](C)O)NC(=O)[C@H](CCCNC(=N)N)NC(=O)[C@H](Cc2c[nH]cn2)NC(=O)[C@H](Cc2cccc3ccccc23)NC(=O)CNC(=O)[C@H](Cc2c[nH]c3ccccc23)NC(=O)[C@H](CC(=O)O)NC(=O)[C@H](CCC(N)=O)NC(=O)[C@H](Cc2cccc3ccccc23)NC(=O)[C@H](C(C)C)NC1=O
